Results of several laboratories.
“And” joins repeats or separate records; there may be more than shown. Numbers after ± are the reported error.

NC[C@@]1(CC(=O)O)[C@@H]2CC[C@H]3C[C@@H]2[C@@H]1C3
AUC(0-inf) increase (human, mild renal impairment, plasma; dose not given; baseline: normal renal function): 14.6%

CCCCCCOC(=O)NC(=N)c1ccc(NCc2nc3cc(C(=O)N(CCC(=O)OCC)c4ccccn4)ccc3n2C)cc1
participants with adverse event (measured: Diarrhea; human; oral, 75 mg, alone): 4.2%

C#Cc1cccc(Nc2ncnc3cc(OCCOC)c(OCCOC)cc23)c1
dose-adjusted solubility (FaSSIF; literature solubility over dose): 8.27e-05 mL⁻¹

CN(C)C(=N)N=C(N)N
subjects with adverse event (measured: haematoma; healthy men; oral, dose not given, 8 days, treatment-emergent, crossover trial): 4.5%

CC(C)(C(=O)N1CCOc2c(C#N)cncc2C1)C(F)F
subjects with adverse event (measured: eye disorders; human; oral, 20 mg once daily, 14 days, multiple ascending dose): 0%

Cc1nc2cccc(OCC(C)(C)C(=O)NC(C)C)c2c(N)c1C(=O)O
micronucleated polychromatic erythrocytes (male Swiss albino CD-1 mouse, bone marrow; oral, 1000 mg/kg, 48 h): 0.05%

COc1ncc(-c2nc3c(n2C(C)C)[C@H](c2ccc(Cl)cc2)N(c2cc(Cl)cn(C)c2=O)C3=O)c(OC)n1
median Tmax (human patients, plasma; oral, 250 mg, high-dose arm, cycle 1 day 1): 3 h

Cc1cc(Nc2ncnc3ccc(NC4=NC(C)(CO)CO4)cc23)ccc1Oc1ccn2ncnc2c1 (stereo not shown)
AUC(0-inf) (geometric mean) (human, plasma; tucatinib, day 10, together with: rifampin once daily): 328 ng·h/mL

CC1(C)CC[C@]2(NC(=O)C(C)(F)F)CC[C@]3(C)[C@H](C(=O)C=C4[C@@]5(C)C=C(C#N)C(=O)C(C)(C)[C@@H]5CC[C@]43C)[C@@H]2C1
trough plasma concentration (human, plasma; oral, 150 mg, day 24 predose, geometric mean): 36.9 ng/mL

Cn1cc(Nc2nccc(-c3ccc4c(c3)CN(C3COC3)CC[C@H]4NC(=O)c3cn(C(C)(C)C)nn3)n2)cn1
lymphocyte count change (human, whole blood; 150 mg twice daily, day 7; baseline: pre-dose baseline): 2.12%

COc1cc2c(c(O)c1OC)C(=O)c1c(cc(C)c(O)c1OC)C2=O
cell viability (HK-2 co-cultured with HepaRG; MTT; 266.67 µM, 24 h; baseline: untreated control): 27 ± 2.35%

O=C(Nc1ccc(OC(F)(F)Cl)cc1)c1cnc(N2CC[C@@H](O)C2)c(-c2ccn[nH]2)c1
grade ≥2 event rate (per treatment cycle, measured: bilirubin increase; human patients; oral, dose not given, 28 day cycle, dose-finding study): 1.3%

O=c1cc(CO)occ1[O-].[Cl-].[W+4].c1cc[cH-]c1.c1cc[cH-]c1
oxidation peak potential (cyclic voltammetry; acetonitrile; baseline: Ag/AgCl): 0.67 to 0.73 V

O=C(O)CCCOc1ccc([18F])cc1-c1cc(-c2ccccc2C(F)(F)F)n(-c2ccccc2)n1
radioactivity uptake (gamma counting; male ddY mice, bone; intravenous, 2.1 MBq, 15 min): 0.94 ± 0.21 SUV

Cc1nc(-c2ccc(OCC(C)C)c(C#N)c2)sc1C(=O)O
body weight (KM mouse, chronic hyperuricaemia model; dose not given, day 30): 46 g and 40 g and 35.6 g and 43.4 g and 37.6 g

COc1c(O)c(C)cc2c1C(=O)c1c(ccc(O)c1O)C2=O
viability (HK-2 co-cultured with HepaRG; MTT; 266.67 µM, 24 h; baseline: untreated control): 69.5 ± 14.2%

Nc1ncnc2c1ncn2[C@H]1C[C@@H]2OP(=O)(O)OC[C@H]3O[C@@H](n4cnc5c(N)ncnc54)C[C@@H]3OP(=O)(O)OC[C@H]2O1
RDW-CV (non-tumor-bearing mice, blood; intravenous, 1 mg/kg, toxicity study): 12.6 ± 0.32%

COc1ccc2c(=O)n(C)c(-c3ccccc3)nc2c1
tissue/plasma ratio (male Sprague-Dawley rat, bladder; oral, 30 mg/kg, 0.25 h; baseline: bladder over plasma): 4.12

CNC(=O)c1ccc(-c2cnc3ncc(Cc4ccc5ncccc5c4)n3n2)cc1F
patients with adverse event (measured: Ascites; cancer patients; oral, dose not given, dose escalation, grade 3-4): 5%

Repeated from above:
COc1cc2c(c(O)c1OC)C(=O)c1c(cc(C)c(O)c1OC)C2=O
cell viability (HK-2 co-cultured with HepaRG; MTT; 266.67 µM, 24 h; baseline: untreated control): 27 ± 2.35%

O=C(Nc1ccc(OC(F)(F)Cl)cc1)c1cnc(N2CC[C@@H](O)C2)c(-c2ccn[nH]2)c1
grade ≥2 event rate (per treatment cycle, measured: bilirubin increase; human patients; oral, dose not given, 28 day cycle, dose-finding study): 1.3%

O=c1cc(CO)occ1[O-].[Cl-].[W+4].c1cc[cH-]c1.c1cc[cH-]c1
oxidation peak potential (cyclic voltammetry; acetonitrile; baseline: Ag/AgCl): 0.67 to 0.73 V
